Results collected from several papers.
Each line is one published result; not all experiments were run side by side. Numbers after ± are the reported error.
ALB: Albumin (ALB, Bos taurus, UniProt P02769)
Chain of UniProt P02769 (whole entry, looked up): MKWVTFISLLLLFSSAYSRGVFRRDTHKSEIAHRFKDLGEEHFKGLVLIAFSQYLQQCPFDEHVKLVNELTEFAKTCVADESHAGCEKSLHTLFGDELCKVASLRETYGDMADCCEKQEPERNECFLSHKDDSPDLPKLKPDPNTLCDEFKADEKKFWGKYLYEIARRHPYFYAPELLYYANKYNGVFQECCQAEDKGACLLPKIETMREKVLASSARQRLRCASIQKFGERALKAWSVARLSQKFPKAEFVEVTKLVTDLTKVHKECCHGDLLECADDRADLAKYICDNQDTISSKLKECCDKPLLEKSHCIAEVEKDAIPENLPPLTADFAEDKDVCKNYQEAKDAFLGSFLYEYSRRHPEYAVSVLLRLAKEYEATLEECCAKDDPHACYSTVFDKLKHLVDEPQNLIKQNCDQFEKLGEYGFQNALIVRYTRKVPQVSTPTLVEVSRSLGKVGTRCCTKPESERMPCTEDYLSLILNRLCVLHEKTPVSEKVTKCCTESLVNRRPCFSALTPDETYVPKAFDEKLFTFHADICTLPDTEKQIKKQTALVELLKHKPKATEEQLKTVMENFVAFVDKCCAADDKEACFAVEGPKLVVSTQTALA
PKM: Pyruvate kinase PKM (PKM, Homo sapiens, UniProt P14618)
Chain of UniProt P14618 (whole entry, looked up): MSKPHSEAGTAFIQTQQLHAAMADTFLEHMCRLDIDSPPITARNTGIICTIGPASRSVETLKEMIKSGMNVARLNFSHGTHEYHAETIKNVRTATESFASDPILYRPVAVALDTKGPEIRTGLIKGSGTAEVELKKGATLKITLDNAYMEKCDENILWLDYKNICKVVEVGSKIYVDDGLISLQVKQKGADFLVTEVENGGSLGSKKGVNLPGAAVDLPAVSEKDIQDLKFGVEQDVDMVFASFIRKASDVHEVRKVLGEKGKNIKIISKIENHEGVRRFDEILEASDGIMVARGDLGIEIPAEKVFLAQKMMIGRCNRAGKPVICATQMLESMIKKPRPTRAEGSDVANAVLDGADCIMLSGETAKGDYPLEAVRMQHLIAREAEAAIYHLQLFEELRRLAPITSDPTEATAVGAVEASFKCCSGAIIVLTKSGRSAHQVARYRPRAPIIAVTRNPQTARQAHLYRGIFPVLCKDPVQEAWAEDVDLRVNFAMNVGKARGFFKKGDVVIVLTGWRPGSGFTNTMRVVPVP
INPP5D: Phosphatidylinositol 3,4,5-trisphosphate 5-phosphatase 1 (INPP5D, Homo sapiens, UniProt Q92835)
Chain of UniProt Q92835 (whole entry, looked up): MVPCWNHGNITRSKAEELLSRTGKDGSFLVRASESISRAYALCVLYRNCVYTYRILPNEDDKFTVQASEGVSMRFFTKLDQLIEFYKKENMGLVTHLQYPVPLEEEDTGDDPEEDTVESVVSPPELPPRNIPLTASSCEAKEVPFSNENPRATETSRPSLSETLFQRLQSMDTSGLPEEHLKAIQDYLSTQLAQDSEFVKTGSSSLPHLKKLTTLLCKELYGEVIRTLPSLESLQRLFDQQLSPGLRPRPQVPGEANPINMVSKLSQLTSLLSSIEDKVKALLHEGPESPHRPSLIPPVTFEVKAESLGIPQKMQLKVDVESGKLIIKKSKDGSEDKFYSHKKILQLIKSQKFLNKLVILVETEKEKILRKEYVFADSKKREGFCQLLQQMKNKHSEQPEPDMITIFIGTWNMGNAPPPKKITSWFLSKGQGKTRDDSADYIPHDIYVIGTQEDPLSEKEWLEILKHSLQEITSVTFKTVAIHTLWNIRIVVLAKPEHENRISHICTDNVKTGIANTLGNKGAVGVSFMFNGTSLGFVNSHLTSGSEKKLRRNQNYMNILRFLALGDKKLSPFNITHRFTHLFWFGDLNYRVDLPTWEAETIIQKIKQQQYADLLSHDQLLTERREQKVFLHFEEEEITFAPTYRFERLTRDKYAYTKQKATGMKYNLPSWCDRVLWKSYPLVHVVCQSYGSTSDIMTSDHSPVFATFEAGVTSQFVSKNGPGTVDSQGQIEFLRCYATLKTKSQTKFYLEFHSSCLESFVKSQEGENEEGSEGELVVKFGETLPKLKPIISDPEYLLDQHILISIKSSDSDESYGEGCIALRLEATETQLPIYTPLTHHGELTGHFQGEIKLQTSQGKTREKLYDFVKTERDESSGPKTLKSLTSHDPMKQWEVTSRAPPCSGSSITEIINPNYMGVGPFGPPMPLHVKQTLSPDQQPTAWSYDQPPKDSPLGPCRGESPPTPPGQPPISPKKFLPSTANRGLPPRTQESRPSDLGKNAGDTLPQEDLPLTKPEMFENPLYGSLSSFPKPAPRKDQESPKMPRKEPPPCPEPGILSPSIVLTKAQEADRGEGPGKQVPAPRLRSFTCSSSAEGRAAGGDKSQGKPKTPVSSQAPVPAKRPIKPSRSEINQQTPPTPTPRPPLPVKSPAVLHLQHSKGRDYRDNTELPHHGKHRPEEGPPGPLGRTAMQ
ALK tyrosine kinase receptor/Echinoderm microtubule-associated protein-like 4: ALK tyrosine kinase receptor/Echinoderm microtubule-associated protein-like 4 (Homo sapiens, UniProt Q9HC35+Q9UM73)
Chain of UniProt Q9HC35 (whole entry, looked up): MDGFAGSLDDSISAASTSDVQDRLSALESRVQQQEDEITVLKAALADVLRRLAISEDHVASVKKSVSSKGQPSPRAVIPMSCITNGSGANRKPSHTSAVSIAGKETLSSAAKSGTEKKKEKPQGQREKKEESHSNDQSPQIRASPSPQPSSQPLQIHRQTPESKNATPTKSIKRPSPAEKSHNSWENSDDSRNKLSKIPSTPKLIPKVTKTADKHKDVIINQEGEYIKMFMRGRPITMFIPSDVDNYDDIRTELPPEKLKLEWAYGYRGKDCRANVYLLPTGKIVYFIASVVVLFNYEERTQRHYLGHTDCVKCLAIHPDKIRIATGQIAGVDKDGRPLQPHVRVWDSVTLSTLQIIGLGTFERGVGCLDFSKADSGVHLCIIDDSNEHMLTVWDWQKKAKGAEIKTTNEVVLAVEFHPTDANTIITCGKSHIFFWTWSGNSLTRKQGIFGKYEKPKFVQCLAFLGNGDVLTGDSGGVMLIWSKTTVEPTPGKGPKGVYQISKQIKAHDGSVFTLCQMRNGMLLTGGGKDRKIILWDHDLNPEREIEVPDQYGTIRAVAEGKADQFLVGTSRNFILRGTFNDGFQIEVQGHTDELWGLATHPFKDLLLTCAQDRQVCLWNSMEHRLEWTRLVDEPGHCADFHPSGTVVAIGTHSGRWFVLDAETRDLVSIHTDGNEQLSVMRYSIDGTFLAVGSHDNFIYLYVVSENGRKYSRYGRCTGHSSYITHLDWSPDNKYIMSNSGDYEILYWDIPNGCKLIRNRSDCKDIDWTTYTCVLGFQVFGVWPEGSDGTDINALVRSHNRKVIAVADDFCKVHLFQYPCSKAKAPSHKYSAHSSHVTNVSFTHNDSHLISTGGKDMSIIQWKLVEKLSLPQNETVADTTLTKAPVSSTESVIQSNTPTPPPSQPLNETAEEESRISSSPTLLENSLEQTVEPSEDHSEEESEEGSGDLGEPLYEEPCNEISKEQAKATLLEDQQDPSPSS
CHRM4: Muscarinic acetylcholine receptor M4 (CHRM4, Homo sapiens, UniProt P08173)
Chain of UniProt P08173 (whole entry, looked up): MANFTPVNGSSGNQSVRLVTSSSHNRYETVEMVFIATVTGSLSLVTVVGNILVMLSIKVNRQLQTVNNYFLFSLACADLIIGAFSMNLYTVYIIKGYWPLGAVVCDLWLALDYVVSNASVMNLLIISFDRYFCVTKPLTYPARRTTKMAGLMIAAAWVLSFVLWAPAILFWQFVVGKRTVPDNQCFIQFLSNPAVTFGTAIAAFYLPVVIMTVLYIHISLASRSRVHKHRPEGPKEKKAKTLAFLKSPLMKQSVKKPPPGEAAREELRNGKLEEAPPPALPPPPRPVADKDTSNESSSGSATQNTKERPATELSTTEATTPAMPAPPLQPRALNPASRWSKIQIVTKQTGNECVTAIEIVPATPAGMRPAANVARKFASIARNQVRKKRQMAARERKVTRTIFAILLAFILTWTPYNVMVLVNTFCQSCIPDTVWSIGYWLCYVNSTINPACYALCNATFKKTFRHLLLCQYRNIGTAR
Chain of UniProt P16050 (whole entry, looked up): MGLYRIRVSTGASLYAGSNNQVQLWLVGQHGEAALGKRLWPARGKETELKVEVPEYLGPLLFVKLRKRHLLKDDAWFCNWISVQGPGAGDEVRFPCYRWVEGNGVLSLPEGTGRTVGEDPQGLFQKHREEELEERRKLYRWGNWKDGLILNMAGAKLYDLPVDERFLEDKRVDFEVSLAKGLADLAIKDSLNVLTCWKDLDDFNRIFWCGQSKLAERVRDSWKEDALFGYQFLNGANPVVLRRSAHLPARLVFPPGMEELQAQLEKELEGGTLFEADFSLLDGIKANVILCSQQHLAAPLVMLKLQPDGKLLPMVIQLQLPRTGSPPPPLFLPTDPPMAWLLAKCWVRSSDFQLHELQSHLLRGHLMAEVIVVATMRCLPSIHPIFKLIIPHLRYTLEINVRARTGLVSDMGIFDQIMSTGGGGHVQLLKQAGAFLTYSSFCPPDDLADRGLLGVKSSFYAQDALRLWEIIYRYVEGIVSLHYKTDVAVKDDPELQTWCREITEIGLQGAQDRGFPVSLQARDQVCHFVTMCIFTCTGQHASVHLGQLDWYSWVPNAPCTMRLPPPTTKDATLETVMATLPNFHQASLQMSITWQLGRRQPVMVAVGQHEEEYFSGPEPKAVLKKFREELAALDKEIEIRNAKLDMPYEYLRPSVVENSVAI

SMILES	target or system	assay	system	setting	endpoint	result
CCCCCCCCCCCCCCCC(=O)Nc1ccccc1SSc1ccccc1NC(=O)CCCCCCCCCCCCCCC	ALB	binding, fluorescence quenching		pH 7.4, 308 K	Kd	17.5 mM
CC(C)COC(=O)c1ccc2c(c1)[C@H]1C=CC[C@H]1[C@@H](c1ccccc1)N2	PKM	enzyme activity, activator, Kinase-Glo Plus		1 h, room temperature, with: ADP 0.1 mM, PEP 0.5 mM	AC50	2.38 µM
CN1CCN(CC(=O)N2N=C3/C(=C/c4ccccc4)CCCC3C2c2ccccc2)CC1 (mixture of isomers)	Polyunsaturated fatty acid lipoxygenase ALOX15 (ALOX15, Homo sapiens, UniProt P16050)	enzyme activity, activator		with: linoleic acid 10 µM	AC50	5.3 µM
C=CC(=O)c1nc(C#N)ccc1N1CCCOCC1	INPP5D	target engagement	HMC3 expressing HiBiT-INPP5D	60 min, 37 °C	AC50	41 µM
COc1cc(N2CCN(C(=O)C3CCCN3)CC2)ccc1Nc1ncc(Cl)c(Nc2ccccc2P(C)(C)=O)n1 (stereo not shown)	ALK tyrosine kinase receptor/Echinoderm microtubule-associated protein-like 4	degrader			DC50	74 nM
CCCCCCOc1ccc(C(=O)OCC[N+]2(C)CC=CCC2)cc1 (stereo not shown)	CHRM4	inositol phosphate accumulation, antagonist, Schild analysis	CHO co-expressing G15	with: carbachol	Kb	0.138 µM
NNc1nc2cc3ccccc3cc2c(=O)n1Cc1ccccc1	Genome polyprotein, protease (Hepatitis C virus genotype 1b, UniProt O92972)	enzyme activity, inhibitor, FRET			IC50	223 µM
CC[C@H]1CC[C@H]2[C@@H]3C[C@@H](O)[C@@]4(O)C[C@H](N)CC[C@]4(C)[C@H]3CC[C@]12C	INPP5D	target engagement	HMC3 expressing HiBiT-INPP5D	60 min, 37 °C	AC50	97 ± 16 µM
CCCCOc1ccc(C(=O)OCCN2CC=CCC2)cc1	CHRM4	inositol phosphate accumulation, antagonist, Schild analysis	CHO co-expressing G15	with: carbachol	Kb	77.6 µM
C[n+]1cn([C@@H]2O[C@H](COP(=O)(O)OP(=O)([O-])C(F)(F)P(=O)(O)O)[C@@H](O)[C@H]2O)c2nc(N)nc(O)c21		cap-dependent translation, inhibitor	rabbit reticulocyte lysate	60 min, 30 °C, no preincubation	IC50	1.81 ± 0.13 µM
COc1cc(N2CCN(C(=O)CCOCCOCCOCCNC(=O)[C@@H]3CCCN3)CC2)ccc1Nc1ncc(Cl)c(Nc2ccccc2P(C)(C)=O)n1	ALK tyrosine kinase receptor/Echinoderm microtubule-associated protein-like 4	degrader			DC50	416 nM
CCCCCCCCCCCC(=O)Nc1ccccc1SSc1ccccc1NC(=O)CCCCCCCCCCC	ALB	binding, fluorescence quenching		pH 7.4, 298 K	Kd	1.7e-06 mM
O=C(NCc1cccnc1)c1ccc2c(c1)[C@H]1[C@@H]3CC[C@@H](C3)[C@H]1[C@H](c1ccccc1)N2	PKM	enzyme activity, activator, Kinase-Glo Plus		1 h, room temperature, with: ADP 0.1 mM, PEP 0.5 mM	AC50	8.47 µM

A few entries again:
SMILES	target or system	assay	system	setting	endpoint	result
COc1cc(N2CCN(C(=O)CCOCCOCCOCCNC(=O)[C@@H]3CCCN3)CC2)ccc1Nc1ncc(Cl)c(Nc2ccccc2P(C)(C)=O)n1	ALK tyrosine kinase receptor/Echinoderm microtubule-associated protein-like 4	degrader			DC50	416 nM
CCCCOc1ccc(C(=O)OCCN2CC=CCC2)cc1	CHRM4	inositol phosphate accumulation, antagonist, Schild analysis	CHO co-expressing G15	with: carbachol	Kb	77.6 µM
